Measured values of several laboratories.
Each numbered part is a random draw from the data of one study; scales do not carry over between parts. Substitutions count along the parent as printed.

Set 1
Target: RNA binding protein fox-1 homolog 2, RRM domain, GST-SBP tag (RBFOX2, Homo sapiens, UniProt O43251-10, residues 100-194)
Technique: RNA Bind-n-Seq
Molecule type: RNA
Matrix: in vitro
Tested at: 365 nM
Setting: natural RNA segment, single round, ends assumed
Baseline: no-protein control
Direction: higher = stronger binding
Constant ends, left off below: GGGAGUUCUACAGUCCGACGAUC … UGGAAUUCUCGGGUGCCAA
Residues (chain): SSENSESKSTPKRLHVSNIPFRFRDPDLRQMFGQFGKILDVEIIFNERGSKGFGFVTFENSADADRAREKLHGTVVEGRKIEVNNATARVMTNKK
| Sequence | RBNS enrichment (R) |
| --- | --- |
| CUUCCUUAGAGCCUGAGUGGUGUGAGGUGACAGGUCUCUCUCUCCACUGCCCCUUUCUGGUUUAAAAAAAUGGUGCUUGAUGAGGGAAGGUAGACUCUUCCCUAGGACUG | 0.498 |
| UCGAAAAUGACAAAUGCAACAGCGAGCCCUUUGUGUCCAGCUAAGCUAAAGUCUCCUCAGUGUGCAGCCAGAUUCCUGGGGACUGCUGAGUGUGGUUACAGGCUGCAUUU | 0.349 |
| ACACAGGUGUCCAUCUCCACUCUGUCCCCGGUCUCUGUCCCAGCUCAGGCUGCGUUCUCUAACUCAUACUGUGAAGACAACCGUGUUUUUGAUUAAAAAAAAUAUAUCUA | 0.492 |
| CAAAUUCAAACUAAAGGGGAAAGAUCAAACCCCUUCCCUUCCUACCUGUUUUCUGAGCUGGCUGACUUGCCAGCCACAAGCUGCUCUUGCAGAGUUCUUACCAUUCCUGU | 0.448 |
| AAGAAGACAGACUGGUUCAUUGAAUGCCGCCUUAUUUAUUUCUGGUGAGGAUGCAUGCGUGGGGCUGCUGGUGUUUAGAGUGGGGGCUACCCAAUAAAUCACUGAUACUC | 5.5 |
| CUAACAGAGAAGGGUAGACAGUUUGUGUUAAAUGUUGGCAUUUACUUGUAUUGACCAAAGUUUUGCAGCUCUACUAUAUUCUGUGCUCAGGACUAAAAUGCUGUUAAUUU | 0.475 |
| UGCUAGCUACCAUCUAAACUGUCCCAUUUUGACCCCUUUCUCCCCAUUAAGCCCUCUACGCUUGGCCCAUUACUCCCACCAUUUAUCCUCUUUUCCGUCUCAAAGGAAGC | 2.67 |
| UCCCCUCUAAUGCUCACGCUCCCAACACAAGGUGGGCAGGGAGGCACCAUUCAGGAACCUGGACCAAAGCUGACGAGGCUGGGCCAAGCCAGGGAUGGGGCCACAGCCAG | 0.301 |

Set 2
Target: Interferon regulatory factor 5, full length, phosphomimetic (IRF5, Homo sapiens, UniProt Q13568-2, residues 1-514, K96S/S451D/S453D/S456D/S462D)
Technique: protein-binding microarray
Molecule type: double-stranded DNA, one strand shown
Matrix: in vitro
Tested at: 250 nM
Setting: 60-bp whole probe
Added: salmon DNA 0.4 mg/ml
Baseline: random background probes
Direction: higher = stronger binding
Constant ends, left off below: GCCTAGCAC … GTCTTGATTCGCTTGACGCTGCTG
| Sequence | log fluorescence |
| --- | --- |
| TCAGCCCTCCCTGTGGGACTGTGCTAG | -0.549 z-score |
| TTGGTTTTCATTATTGCTTCGTGCTAG | 2.56 z-score |
| TTATGTATCGGGTTTCGGTTAGTGCTA | 8.7 z-score |
| TTAGGACTGCTTTTCCTTAAGTGCTAG | 0.229 z-score |
| GAGGGTTTCCTTCTCCTGACGTGCTAG | 0.282 z-score |
| TTTCTTTTATGCTCTTTCTACGTGCTA | 5.84 z-score |
| TCACTCATGGCTTTGTAACTGTGCTAG | -0.000949 z-score |
| TTGGGTTTCCTTTCCCTTTAGTGCTAG | 1.76 z-score |

Set 3
Target: Homeobox protein Hox-C11, full length (HOXC11, Homo sapiens, UniProt O43248, residues 1-304)
UniProt O43248, sequence (whole entry, looked up): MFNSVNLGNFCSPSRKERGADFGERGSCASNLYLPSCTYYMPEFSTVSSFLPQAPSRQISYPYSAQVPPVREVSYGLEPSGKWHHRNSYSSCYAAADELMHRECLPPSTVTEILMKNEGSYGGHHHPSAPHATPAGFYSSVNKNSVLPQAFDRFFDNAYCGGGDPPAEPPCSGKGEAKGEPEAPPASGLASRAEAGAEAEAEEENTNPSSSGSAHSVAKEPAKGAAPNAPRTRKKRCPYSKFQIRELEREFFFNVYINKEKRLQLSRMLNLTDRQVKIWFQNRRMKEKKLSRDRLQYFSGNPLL
Technique: protein-binding microarray
Molecule type: hairpin DNA
Matrix: in vitro
Tested at: not given
Setting: whole hairpin DNA, median over replicate spots
Baseline: not given
Direction: higher = stronger binding
Constant ends, left off below: GAGGCCAG … CTGGCCTCACACTC
| Sequence | median fluorescence |
| --- | --- |
| CTCGTTAAAGCCTCCTGGCTTTAACGAG (5mC at 9) | 8810 a.u. |
| GTCGTTAACGCCTCCTGGCGTTAACGAC (5mC at 17) | 10600 a.u. |
| CGCGTTAAAGCCTCCTGGCTTTAACGCG | 10400 a.u. |
| GTCGTAACAGCCTCCTGGCTGTTACGAC | 11100 a.u. |
| GTAGTTAAAGCCTCCTGGCTTTAACTAC | 9160 a.u. |
| CGCGTAAAAGCCTCCTGGCTTTTACGCG (5mC at 9) | 10200 a.u. |
| GGCGTTAAAGCCTCCTGGCTTTAACGCC (5mC at 35) | 9950 a.u. |
| GTCGTAACGGCCTCCTGGCCGTTACGAC (5mC at 16) | 10300 a.u. |

Mixed results
Parent: viral docking peptide; TSVRRALFTGGSD; partner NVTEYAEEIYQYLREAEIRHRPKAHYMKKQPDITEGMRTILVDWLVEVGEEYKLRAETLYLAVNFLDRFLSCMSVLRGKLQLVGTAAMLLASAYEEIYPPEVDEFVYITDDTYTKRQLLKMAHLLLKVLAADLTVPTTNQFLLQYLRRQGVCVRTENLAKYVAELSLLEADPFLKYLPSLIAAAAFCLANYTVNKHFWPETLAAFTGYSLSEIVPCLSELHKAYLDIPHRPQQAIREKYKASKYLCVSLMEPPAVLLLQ
| Substitution | target | assay | system | conditions | how to read | quantity | value |
| --- | --- | --- | --- | --- | --- | --- | --- |
| F8K | CCNA1, cyclin fold, Cln2 fusion (human) | yeast growth competition, sequencing | yeast | strong parent motif | baseline: not given, higher = stronger binding | normalised enrichment score | -0.111 |

A few entries again (set 2):
| Sequence | log fluorescence |
| --- | --- |
| TTTCTTTTATGCTCTTTCTACGTGCTA | 5.84 z-score |
| TCACTCATGGCTTTGTAACTGTGCTAG | -0.000949 z-score |
| TTGGGTTTCCTTTCCCTTTAGTGCTAG | 1.76 z-score |
